Experimental data pooled from the literature.
Each line is one published result; not all experiments were run side by side. Several values in a cell are separate wells, animals, samples, runs or records.
Organism: SARS-CoV-2

With Cc1ccc(-c2nc3c(nc2-c2ccc(C)cc2)N(CCCCCCC(=O)O)CCC3)cc1 the EC50 was 16.6 µM (viral replication, high-content imaging screen; BetaCov/Belgium/GHB-03021/2020; cell-based).
Cc1cc(OCCN2CCOCC2)nn1-c1ccc2ccccc2c1: “viral replication inhibition” “inactive” (concentration not given, Paris laboratory).
O=C(O[C@@H]1Cc2c(O)cc(O)cc2O[C@@H]1c1cc(O)c(O)c(O)c1)c1cc(O)c(O)c(O)c1 has a CPE inhibition of 0% (viral replication; Vero E6; 3.125 µM; relative to: mean of replicates).
For CC(C)(C)[C@H](NC(=O)C(F)(F)F)C(=O)N1C[C@H]2[C@@H]([C@H]1C(=O)N[C@H](C#N)C[C@@H]1CCNC1=O)C2(C)C, the inhibition was 1.45% (viral replication; Vero E6; 0.0005 µM).
Under viral inhibition, COC(=O)C1(c2ccc(C)cc2)CC1CN1CCC(O)(c2ccccc2)CC1 (stereo not drawn) is recorded as “inactive” (Vero E6; concentration not given).
COC(=O)C1=C(C)NC(C)=C(C(=O)OC2CCCN(Cc3ccccc3)C2)C1c1cccc([N+](=O)[O-])c1 (stereo not drawn) has an EC50 of greater than 100 µM (viral replication, high-content imaging screen; cell-based).
For CC(C)C(=O)OC[C@H]1O[C@@H](n2ccc(NO)nc2=O)[C@H](O)[C@@H]1O, “lowest active concentration” read 1 µM (viral replication; human airway epithelium).
For CCCN1CCN(CCCNC(=O)c2cc3c(Cl)nc4ccccc4c3s2)CC1, the maximum response was 74.1% (cytopathic effect; USA_WA1/2020; retest 8-point).
The viral titre of Cc1nn(-c2ccc(Cl)cc2)c2c1C(c1ccc(Cl)cc1Cl)C(C#N)=C(N)O2 (stereo not drawn) is reported as 346000 IU/mL (Vero; 10 µM).
O=C1NCN(c2ccccc2)C12CCN(CCCC(c1ccc(F)cc1)c1ccc(F)cc1)CC2 gave an EC50 of greater than 100 µM (viral replication, high-content imaging screen; cell-based).
For Cc1ncccc1-c1nc2cc(C(=O)NCCCc3ccccc3)ccc2o1, the maximum response was 48.2% (cytopathic effect; USA_WA1/2020; round 2, 5-point).
For Cc1nn(-c2ccc(Cl)cc2)c2c1C(c1ccc(-c3ccccc3)cc1)C(C#N)=C(N)O2 (stereo not drawn), the viral titre was 941000 IU/mL (Vero; 1 µM).
CO[C@@H]1CC/C=C/c2cccc(c2)[C@@H](CCNC(=O)OC(C)(C)C)OC(=O)[C@@H]2CCCN(N2)C(=O)[C@H](C)NC(=O)[C@H](C(C)C)NC(=O)[C@@H]1C — result for “viral replication inhibition”: “inactive” (concentration not given, Paris laboratory).
With COc1ccc(N2CCN(CCCNC(=O)c3cc(Nc4ccc(OC)cc4OC)nc4ccccc34)CC2)cc1 the efficacy was 46.7% (cytopathic effect; USA_WA1/2020; retest, 8-point, duplicates).
Under “viral replication inhibition”, O=C(CCCN1CCC(O)(c2ccc(Cl)cc2)CC1)c1ccc(F)cc1 is recorded as “inactive” (concentration not given, Paris laboratory).
With c1cncc(-c2c[nH]nn2)c1 the IC50 was greater than 2 µM (viral replication; Huh-7).
With CCC(CC)COC(=O)[C@H](C)N[P@](=O)(OC[C@H]1O[C@@](C#N)(c2ccc3c(N)ncnn23)[C@H](O)[C@@H]1O)Oc1ccccc1 the viral titre was 70400 IU/mL (Vero; 10 µM).
The IC50 of CCN(CC)C(=O)C1(c2ccccc2)CC1CN (stereo not drawn) is reported as greater than 10 µM (viral replication, RT-qPCR; A549 expressing ACE2).
COc1ccc2cc1Oc1ccc(cc1)C[C@H]1c3cc(c(OC)cc3CCN1C)Oc1c(OC)c(OC)cc3c1[C@H](C2)N(C)CC3 has an inhibition of 88.9% (viral replication; Vero E6, USA-WA1/2020; 2.5 µM).
The CPE inhibition of O=C(/C=C/c1ccc(O)c(O)c1/C=C/c1ccc(O)c(O)c1)O[C@H](Cc1ccc(O)c(O)c1)C(=O)O is reported as 0% (viral replication; Vero E6; 6.25 µM).
COc1ccc2c(Sc3ccccc3)c(C(=O)NCCCN3CCCCC3)[nH]c2c1 gave an efficacy of 73.4% (cytopathic effect; USA_WA1/2020; retest, 8-point, duplicates).
With Nc1nc(N)c(N=O)c(OCC2CCCCC2)n1 the IC50 was greater than 2 µM (viral replication; Huh-7).
Under antiviral activity, COC(=O)NCCc1c(C(O)c2ccccc2)[nH]c2ccc(OC)cc12 (stereo not drawn) is recorded as “inactive” (viral replication, FISH-Flow dsRNA staining; Vero C1008 (VeroE6); 1 µM).
For CCN(CCO)CCCC(C)Nc1ccnc2cc(Cl)ccc12 (stereo not drawn), activity class read “active” (viral replication; Vero E6; concentration not given).
For CN1CC[C@@]23CCCC[C@@H]2[C@@H]1Cc1ccc(O)cc13, the IC50 was greater than 10 µM (viral replication; A549 expressing ACE2; inactive set pIC50 4).
The EC50 of CN1CCC(COc2cnc(-c3cccc(Cn4nc(-c5cccc(C#N)c5)ccc4=O)c3)nc2)CC1 is reported as greater than 100 µM (viral replication, high-content imaging screen; BetaCov/Belgium/GHB-03021/2020; cell-based).
For NS(=O)(=O)c1cc(C2(O)NC(=O)c3ccccc32)ccc1Cl (stereo not drawn), the IC50 was greater than 2 µM (viral replication; Huh-7).
The efficacy of CN(C)CCNC(=O)c1ccc2c(c1)C1(CCN(CC3CC3)C1)CN2Cc1ccccc1 (stereo not drawn) is reported as 96.9% (cytopathic effect; USA_WA1/2020; round 2, 5-point).
For COc1cc(C2C(C#N)=C(N)Oc3c2c(C)nn3-c2ccc(Cl)cc2)cc(OC)c1OC (stereo not drawn), the viral reduction was 10.8% (viral replication; Vero; 10 µM).
For CCCCCCC(C)(C)c1cc(O)c([C@H]2CC(=O)[C@H]3C[C@@H]2C3(C)C)c(OC(=O)/C=C/C(=O)O)c1, the EC50 was greater than 50.1 µM (viral replication, high-content imaging screen; cell-based).
CC(C)=CCN1Cc2cc(Cl)cc3[nH]c(=S)n(c23)C[C@@H]1C has an EC90 of 0.487 µM (viral replication, inhibitor; Vero E6, USA-WA1/2020; 24 h).
The mean inhibition of COc1ccc(C[C@@H]2c3cc(Oc4cc(C[C@@H]5c6cc(O)c(OC)cc6CCN5C)ccc4O)c(OC)cc3CCN2C)cc1 is reported as 0% (cytopathic effect; Vero E6; 6.25 µM, replicate run).
CCOC1O[C@H]([C@@H](COCc2ccccc2)OCc2ccccc2)[C@H](OCc2ccccc2)[C@H]1O (stereo partly drawn) has an EC50 of greater than 50.1 µM (viral replication, high-content imaging screen; cell-based).
For O=C1NC(=O)C(c2ccccc2)(c2ccccc2)N1, the IC50 was greater than 2 µM (viral replication; Huh-7).
With Nc1ncnc2c1ncn2[C@@H]1O[C@H](CO)C[C@H]1O the replicon activity was 0.569 and 0.461 and 0.77 and 0.819 and 0.5 and 0.593 (HiBiT luminescence; HeLa replicon; concentration not given, unit not given; relative to: DMSO).
For Cc1nn(-c2ccc(Cl)cc2)c2c1C(c1c(Cl)cccc1Cl)C(C#N)=C(N)O2 (stereo not drawn), the viral reduction was 4.47% (viral replication; Vero; 10 µM).
For c1ccc2c(c1)Sc1ccccc1N2CC1CN2CCC1CC2 (stereo not drawn), the EC50 was greater than 100 µM (viral replication, high-content imaging screen; cell-based).
CCN(CC)CCNC(=O)c1[nH]c2ccccc2c1Sc1ccc(Cl)cc1 has a maximum response of 91.2% (cytopathic effect; USA_WA1/2020; retest, 8-point, duplicates).
With CCCN(CCC)CCc1ccc(OC)c(OCCc2ccccc2)c1 the IC50 was 3.72 µM (viral replication, anti-nucleoprotein immunostaining; Vero E6).
With CCc1ccc(Sc2cc(C(=O)NCCCN3CCC(C)CC3)c3ccccc3n2)cc1 the AC50 was 3.55 µM (cytopathic effect, cell-based CPE; USA_WA1/2020; round 1, 5-point dilution).
CC(C)=CCc1c(O)ccc(C(=O)/C=C/c2ccc(O)cc2)c1O gave a CPE inhibition of 93.3% (viral replication; Vero E6; 100 µM; relative to: mean of replicates).
COc1ccc(C(CN(C)C)C2(O)CCCCC2)cc1 (stereo not drawn) has an IC50 of greater than 10 µM (viral replication; A549 expressing ACE2; inactive set pIC50 4).
The AC50 of O=C(CCc1ccc(CC2CCN(Cc3c[nH]c4ccccc34)CC2)cc1)N1CCCC1 is reported as 12.6 µM (cytopathic effect, cell-based CPE; USA_WA1/2020; round 2, 5-point dilution).
CCCSc1ccccc1N1CCN(CCCCn2c(=O)[nH]c3ccccc3c2=O)CC1 gave an EC50 of greater than 100 µM (viral replication, high-content imaging screen; cell-based).
CC(C)/N=c1\cc2n(-c3ccc(Cl)cc3)c3ccccc3nc-2cc1Nc1ccc(Cl)cc1 gave an inhibition of 49.4% (viral replication; Vero E6, USA-WA1/2020; 2.5 µM).
